Assay results pooled from the literature.
Each line is one published result; not all experiments were run side by side. Numbers after ± are the reported error.
HDAC7: Histone deacetylase 7 (HDAC7, Homo sapiens, UniProt Q8WUI4)
Chain of UniProt Q8WUI4 (whole entry, looked up): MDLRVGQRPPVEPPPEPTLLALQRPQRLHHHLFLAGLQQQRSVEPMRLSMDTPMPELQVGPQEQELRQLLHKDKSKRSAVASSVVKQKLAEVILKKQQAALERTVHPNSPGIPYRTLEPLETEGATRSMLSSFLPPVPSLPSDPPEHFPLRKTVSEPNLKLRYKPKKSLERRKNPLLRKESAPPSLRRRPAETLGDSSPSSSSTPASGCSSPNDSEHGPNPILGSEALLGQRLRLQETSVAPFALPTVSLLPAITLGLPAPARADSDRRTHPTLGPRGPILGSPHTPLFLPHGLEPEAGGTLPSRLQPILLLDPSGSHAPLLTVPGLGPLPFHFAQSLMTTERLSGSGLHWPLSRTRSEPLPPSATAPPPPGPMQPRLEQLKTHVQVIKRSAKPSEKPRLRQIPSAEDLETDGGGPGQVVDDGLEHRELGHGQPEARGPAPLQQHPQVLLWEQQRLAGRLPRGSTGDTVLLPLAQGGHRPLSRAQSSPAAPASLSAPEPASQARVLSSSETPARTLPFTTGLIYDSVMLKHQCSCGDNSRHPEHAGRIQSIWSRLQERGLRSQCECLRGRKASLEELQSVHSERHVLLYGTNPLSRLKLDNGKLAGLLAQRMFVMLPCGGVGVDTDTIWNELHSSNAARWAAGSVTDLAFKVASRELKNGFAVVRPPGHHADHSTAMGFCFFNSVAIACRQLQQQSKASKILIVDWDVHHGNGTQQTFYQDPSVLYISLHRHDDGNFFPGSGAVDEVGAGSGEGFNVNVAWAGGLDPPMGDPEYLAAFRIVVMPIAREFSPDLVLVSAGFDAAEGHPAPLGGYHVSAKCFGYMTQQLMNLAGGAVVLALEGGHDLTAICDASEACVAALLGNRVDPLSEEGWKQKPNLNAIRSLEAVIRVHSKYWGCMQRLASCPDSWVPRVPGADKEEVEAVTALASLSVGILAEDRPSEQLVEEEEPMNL
Gria2/Glutamate receptor 3: Gria2/Glutamate receptor 3 (Rattus norvegicus, UniProt P19491+P19492)
Chain of UniProt P19492 (whole entry, looked up): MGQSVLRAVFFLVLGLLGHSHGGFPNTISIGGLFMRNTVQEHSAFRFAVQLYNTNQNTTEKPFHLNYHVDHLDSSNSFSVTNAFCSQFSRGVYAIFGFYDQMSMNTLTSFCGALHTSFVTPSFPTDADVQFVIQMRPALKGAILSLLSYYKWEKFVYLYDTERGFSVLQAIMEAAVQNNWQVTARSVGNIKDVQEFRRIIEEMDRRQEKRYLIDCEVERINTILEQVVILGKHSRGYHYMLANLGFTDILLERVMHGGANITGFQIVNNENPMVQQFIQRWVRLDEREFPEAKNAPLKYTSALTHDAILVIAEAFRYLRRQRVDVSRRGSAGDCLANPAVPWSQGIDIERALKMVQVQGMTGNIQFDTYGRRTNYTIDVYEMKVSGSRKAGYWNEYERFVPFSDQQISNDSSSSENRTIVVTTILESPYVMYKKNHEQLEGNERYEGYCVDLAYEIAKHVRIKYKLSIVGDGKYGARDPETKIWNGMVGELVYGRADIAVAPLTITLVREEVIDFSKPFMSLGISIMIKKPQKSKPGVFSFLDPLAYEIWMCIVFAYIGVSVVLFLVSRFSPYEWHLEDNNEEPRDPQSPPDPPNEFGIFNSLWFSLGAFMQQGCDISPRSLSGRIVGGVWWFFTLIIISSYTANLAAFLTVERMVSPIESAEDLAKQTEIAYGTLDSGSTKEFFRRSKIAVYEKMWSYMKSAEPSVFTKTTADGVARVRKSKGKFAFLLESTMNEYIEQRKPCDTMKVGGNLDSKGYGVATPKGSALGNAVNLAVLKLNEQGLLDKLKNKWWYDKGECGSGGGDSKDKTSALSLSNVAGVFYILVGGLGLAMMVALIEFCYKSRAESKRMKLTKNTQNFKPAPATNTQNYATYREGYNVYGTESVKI
Chain of UniProt P19491 (whole entry, looked up): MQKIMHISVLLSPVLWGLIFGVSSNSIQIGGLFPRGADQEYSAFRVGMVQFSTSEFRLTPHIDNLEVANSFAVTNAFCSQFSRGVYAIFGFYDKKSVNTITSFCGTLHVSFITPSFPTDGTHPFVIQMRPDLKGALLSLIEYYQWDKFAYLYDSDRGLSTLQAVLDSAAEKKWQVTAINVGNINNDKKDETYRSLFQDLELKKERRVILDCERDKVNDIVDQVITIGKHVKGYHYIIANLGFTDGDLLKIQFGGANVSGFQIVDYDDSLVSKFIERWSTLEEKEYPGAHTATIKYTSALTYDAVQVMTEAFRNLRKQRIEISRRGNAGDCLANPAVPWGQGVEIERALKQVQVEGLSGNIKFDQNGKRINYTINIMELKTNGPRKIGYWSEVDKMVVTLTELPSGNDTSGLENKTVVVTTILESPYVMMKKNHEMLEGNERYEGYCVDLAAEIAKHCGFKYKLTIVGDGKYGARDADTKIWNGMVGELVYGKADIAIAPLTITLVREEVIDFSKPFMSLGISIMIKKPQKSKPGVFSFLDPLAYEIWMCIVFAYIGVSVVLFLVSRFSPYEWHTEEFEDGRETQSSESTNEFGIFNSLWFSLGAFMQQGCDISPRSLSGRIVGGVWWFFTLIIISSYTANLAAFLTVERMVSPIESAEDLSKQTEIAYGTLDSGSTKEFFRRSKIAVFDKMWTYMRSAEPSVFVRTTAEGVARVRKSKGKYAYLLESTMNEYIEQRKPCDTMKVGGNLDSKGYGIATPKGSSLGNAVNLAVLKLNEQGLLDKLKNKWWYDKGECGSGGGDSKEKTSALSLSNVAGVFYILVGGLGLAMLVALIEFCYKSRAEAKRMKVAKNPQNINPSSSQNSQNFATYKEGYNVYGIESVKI
Chain of UniProt P42336 (whole entry, looked up): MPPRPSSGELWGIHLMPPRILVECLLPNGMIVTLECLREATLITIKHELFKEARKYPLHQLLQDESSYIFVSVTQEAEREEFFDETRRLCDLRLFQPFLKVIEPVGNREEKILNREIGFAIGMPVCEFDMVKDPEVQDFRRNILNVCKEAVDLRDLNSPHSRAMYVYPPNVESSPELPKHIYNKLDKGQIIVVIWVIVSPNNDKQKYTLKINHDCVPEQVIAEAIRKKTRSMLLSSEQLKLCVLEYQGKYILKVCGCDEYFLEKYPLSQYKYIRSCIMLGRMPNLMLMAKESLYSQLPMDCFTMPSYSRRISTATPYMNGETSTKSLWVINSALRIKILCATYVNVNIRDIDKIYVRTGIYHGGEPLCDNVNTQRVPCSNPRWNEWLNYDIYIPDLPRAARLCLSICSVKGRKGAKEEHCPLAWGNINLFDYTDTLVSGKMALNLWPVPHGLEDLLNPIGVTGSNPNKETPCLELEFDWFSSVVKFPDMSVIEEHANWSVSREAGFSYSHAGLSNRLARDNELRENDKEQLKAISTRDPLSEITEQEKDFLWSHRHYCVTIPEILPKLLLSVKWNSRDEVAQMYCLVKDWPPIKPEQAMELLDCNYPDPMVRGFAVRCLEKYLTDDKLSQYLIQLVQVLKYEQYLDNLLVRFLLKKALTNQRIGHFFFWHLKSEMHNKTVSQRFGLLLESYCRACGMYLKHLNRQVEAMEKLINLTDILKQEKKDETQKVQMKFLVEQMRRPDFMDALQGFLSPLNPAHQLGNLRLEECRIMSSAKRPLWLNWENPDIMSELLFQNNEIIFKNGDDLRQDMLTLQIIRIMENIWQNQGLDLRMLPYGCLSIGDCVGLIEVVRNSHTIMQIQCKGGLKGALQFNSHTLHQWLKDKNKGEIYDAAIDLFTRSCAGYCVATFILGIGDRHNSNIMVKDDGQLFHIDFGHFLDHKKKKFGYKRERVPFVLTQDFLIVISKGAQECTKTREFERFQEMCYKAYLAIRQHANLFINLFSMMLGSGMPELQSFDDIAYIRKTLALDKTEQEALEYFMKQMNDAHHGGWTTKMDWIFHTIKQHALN
Chain of UniProt Q92731 (whole entry, looked up): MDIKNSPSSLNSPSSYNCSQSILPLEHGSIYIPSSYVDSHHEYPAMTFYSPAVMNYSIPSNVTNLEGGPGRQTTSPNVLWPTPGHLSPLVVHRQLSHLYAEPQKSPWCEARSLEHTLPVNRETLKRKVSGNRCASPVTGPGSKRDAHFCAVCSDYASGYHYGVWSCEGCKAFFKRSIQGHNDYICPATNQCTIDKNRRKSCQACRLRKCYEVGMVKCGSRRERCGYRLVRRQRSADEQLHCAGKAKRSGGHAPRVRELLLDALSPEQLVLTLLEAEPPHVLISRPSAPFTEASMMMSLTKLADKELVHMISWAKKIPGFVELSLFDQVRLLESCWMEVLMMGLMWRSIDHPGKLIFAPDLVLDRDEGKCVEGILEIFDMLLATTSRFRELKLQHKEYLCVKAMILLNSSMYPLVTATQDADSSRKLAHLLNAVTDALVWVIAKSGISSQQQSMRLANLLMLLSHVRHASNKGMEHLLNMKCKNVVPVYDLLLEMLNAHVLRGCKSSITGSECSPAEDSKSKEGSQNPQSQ
Chain of UniProt Q05655 (whole entry, looked up): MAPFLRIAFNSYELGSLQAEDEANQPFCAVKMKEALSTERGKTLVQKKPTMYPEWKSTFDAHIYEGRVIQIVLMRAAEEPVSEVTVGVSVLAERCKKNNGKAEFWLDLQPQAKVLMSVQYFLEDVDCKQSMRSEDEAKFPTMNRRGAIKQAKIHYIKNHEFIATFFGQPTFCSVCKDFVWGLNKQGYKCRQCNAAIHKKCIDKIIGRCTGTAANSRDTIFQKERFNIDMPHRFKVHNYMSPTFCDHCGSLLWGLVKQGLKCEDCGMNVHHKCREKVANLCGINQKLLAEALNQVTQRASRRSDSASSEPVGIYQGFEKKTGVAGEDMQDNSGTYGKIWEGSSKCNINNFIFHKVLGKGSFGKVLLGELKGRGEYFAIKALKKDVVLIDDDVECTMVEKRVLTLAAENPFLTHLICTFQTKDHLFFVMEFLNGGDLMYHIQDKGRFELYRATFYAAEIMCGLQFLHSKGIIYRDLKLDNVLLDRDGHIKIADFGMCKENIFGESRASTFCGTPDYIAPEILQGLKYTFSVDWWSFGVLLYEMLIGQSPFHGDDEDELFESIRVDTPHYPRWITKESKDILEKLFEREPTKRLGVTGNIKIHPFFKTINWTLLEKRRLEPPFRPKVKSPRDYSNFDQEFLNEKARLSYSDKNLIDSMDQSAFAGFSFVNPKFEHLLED

O=C1CCC(N2C(=O)c3ccc(N4CC(C(=O)N5CC(CCN6CCC(CNC(=O)c7cccc(-c8noc(C(F)(F)F)n8)c7)(c7nc(-c8ccccc8)cs7)CC6)C5)C4)cc3C2=O)C(=O)N1 (stereo not shown)  IC50 (HDAC7; enzyme activity, inhibitor): 0.31 µM
Cc1nc2c(F)cc(-c3nc(Nc4ccc(CNC(=O)CCCCCCC(=O)NO)cc4)ncc3F)cc2n1C(C)C  IC50 (HDAC7; enzyme activity, inhibitor): > 10 µM
COc1ccc(CNC(=O)c2cnc3c(c(C)nn3C)c2Cl)cc1  IC50 (60 kDa heat shock protein, mitochondrial (Homo sapiens, UniProt P10809); ATPase activity, inhibitor): > 250 µM
O=C(c1cncc(-c2ccc3ncnc(Nc4ccc(OCc5cccc(F)c5)c(Cl)c4)c3c2)c1)N1CCOCC1  EC50 (Leishmania major; intracellular amastigote growth, luciferase; RAW264.7 macrophages): > 15 µM
Cc1nn(-c2cccc(N)c2)c(=O)c2cnc(Nc3ccc(N4CCNCC4)cc3)nc12  IC50 (PRKCD (Homo sapiens, UniProt Q05655); enzyme activity, inhibitor): > 10 µM
O=C(CCNC(=O)CNC(=O)CC(c1ccccc1)(c1ccccc1)c1ccccc1)NC[C@@H]1CCCN(Cc2ccc(F)cc2)C1  IC50 (CHRM1 (Homo sapiens, UniProt P11229); ligand displacement, radioligand; cell membranes): 23.1 µM
COC(=O)c1ccc(OC)c(OCc2ccccc2)c1-c1c(C(=O)OC)ccc(OC)c1OCc1ccccc1  IC50 (TLR2 (Homo sapiens, UniProt O60603); reporter gene, inhibitor, SEAP reporter; HEK-Blue hTLR2; 24 h, together with: Pam3CSK4 100 ng/mL): > 100 µM
O=C(c1ccc(-c2ccc3ncnc(Nc4ccc(OCc5cccc(F)c5)c(Cl)c4)c3c2)cc1)N1CCOCC1  EC50 (Leishmania major; intracellular amastigote growth, luciferase; RAW264.7 macrophages): 1.4 µM
Oc1cc(O)c2cc(O[C@@H]3OC[C@H](O)[C@H](O)[C@H]3O)c(-c3ccc(O)c(O)c3)[o+]c2c1  IC50 (PPO3 (Agaricus bisporus, UniProt C7FF04); enzyme activity, inhibitor, absorbance; pH 6.8): 55.5 µM
Nc1ccc(-c2ccc(F)cc2)cc1NC(=O)C1CCOCC1  IC50 (HDAC7; enzyme activity, inhibitor): > 33.3 µM
CCn1nc(Cl)c2c1-c1cnc(N)c(c1)O[C@H](C)c1cc(F)ccc1-c1nn(C)cc1C2  IC50 (PTK6 (Homo sapiens, UniProt Q13882); enzyme activity, inhibitor, radiometric): 0.235 µM
CC(=O)OC1CCC2(C)C(CCC3(C)C2CC=C2C4C(C)C(C)CCC4(C(=O)O)CCC23C)C1(C)C (stereo not shown)  IC50 (UGT1A3 (Homo sapiens, UniProt P35503); enzyme activity, inhibitor): 11.3 µM
CCN(CC)CC(=O)Nc1cccc(-n2cc(-c3ccc4ccc(-c5cn(-c6cccc(NC(=O)CN(CC)CC)c6)nn5)cc4c3)nn2)c1  IC50 (PI4KB (Homo sapiens, UniProt Q9UBF8); enzyme activity, inhibitor): > 10 µM
O=C(O)Cc1cc2c(cc1C(=O)c1ccccc1)OCO2  IC50 (Gria2/Glutamate receptor 3; ion current, antagonist, patch clamp): 5.5 µM
CC1CCC2C(C)C(OC(=O)CCC(=O)OCCOCCOCCOC(=O)N3CCC(Nc4ccc(S(=O)(=O)NC(=O)c5ccc(N6CCN(CC7=C(c8ccc(Cl)cc8)CC(C)(C)CC7)CC6)cc5Oc5cnc6[nH]ccc6c5)cc4[N+](=O)[O-])CC3)OC3OC4(C)CCC1C32OO4 (stereo not shown)  IC50 (BCL2 (Homo sapiens, UniProt P10415); ligand displacement, FP): 0.71 µM
Cc1oc(C)c(-c2ccc(N(CC(C)C)C3CCCCC3)c(NC(=O)Nc3ccc(B(O)O)cc3)c2)c1C(=O)O  IC50 (IDO1 (Homo sapiens, UniProt P14902); enzyme activity, inhibitor, recombinant enzyme, measured: kynurenine; 20 min, 2% DMSO, together with: L-tryptophan): 34 ± 10 µM
O=C1/C(=N\c2ccc(Cl)cc2Br)c2ccccc2N1C(=O)c1ccccc1Br  IC50 (PIK3CA (Homo sapiens, UniProt P42336); enzyme activity, inhibitor, ADP detection): 0.0936 µM
C[C@@H]1Cc2c([nH]c3ccccc23)[C@@H](c2c(F)cc(/C=C/C(=O)O)cc2F)N1C12CC(C1)C2  IC50 (ESR2 (Homo sapiens, UniProt Q92731); cell-free assay): 0.000779 µM
O=C(O)Cc1cc2c(cc1C(=O)c1ccccc1Cl)OCO2  IC50 (Gria2/Glutamate receptor 3; ion current, antagonist, patch clamp): 4.47 µM

Some of these lines once more:
Nc1ccc(-c2ccc(F)cc2)cc1NC(=O)C1CCOCC1  IC50 (HDAC7; enzyme activity, inhibitor): > 33.3 µM
CCn1nc(Cl)c2c1-c1cnc(N)c(c1)O[C@H](C)c1cc(F)ccc1-c1nn(C)cc1C2  IC50 (PTK6 (Homo sapiens, UniProt Q13882); enzyme activity, inhibitor, radiometric): 0.235 µM
